{"data": "Values quoted from earlier work as cited in several papers", "note": "Protocols differ between the studies behind these lines. ± marks the error that the study gave."}
{"SMILES": "C1=C2CCCN[C@H]2[C@@H]2C[C@H]1[C@H]1CCCCN1C2", "tested on": "HIV-1 NL4-3 Nanoluc", "test": "viral replication", "system": "MT-4", "endpoint": "IC50", "value": "1.75 µM"}
{"SMILES": "CC[C@H](C)[C@H](NC(=O)[C@@H]1CCCN1C(=O)CNC(=O)[C@H](Cc1ccccc1)NC(=O)[C@H](CC(N)=O)NC(=O)[C@H](CC(N)=O)NC(=O)[C@H](CO)NC(=O)[C@H](CO)NC(=O)[C@H](Cc1c[nH]cn1)NC(=O)[C@H](CCCNC(=N)N)NC(=O)[C@H](CC(C)C)NC(=O)[C@H](Cc1ccccc1)NC(=O)[C@H](CCC(=O)O)NC(=O)[C@H](C)NC(=O)[C@H](CC(C)C)NC(=O)[C@H](CCCNC(=N)N)NC(=O)[C@H](CCC(N)=O)NC(=O)[C@@H](NC(=O)[C@H](C)NC(=O)[C@@H]1CSSC[C@H](NC(=O)[C@H](CCCCN)NC(=O)CC[C@H](NC(=O)CCCCCCCCCCCCCCCCCCC(=O)O)C(=O)O)C(=O)N[C@@H](CC(N)=O)C(=O)N[C@@H]([C@@H](C)O)C(=O)N[C@@H](C)C(=O)N[C@@H]([C@@H](C)O)C(=O)N1)[C@@H](C)O)C(=O)N[C@@H](CC(C)C)C(=O)N1CCC[C@H]1C(=O)N1CCC[C@H]1C(=O)N[C@H](C(=O)N[C@@H](CC(N)=O)C(=O)N[C@H](C(=O)NCC(=O)N[C@@H](CO)C(=O)N[C@@H](CC(N)=O)C(=O)N[C@H](C(=O)N1CCC[C@H]1C(N)=O)[C@@H](C)O)C(C)C)[C@@H](C)O", "system": "human", "setting": "0.16 to 4.5 mg", "endpoint": "half-life", "value": "158 to 194 h"}
{"SMILES": "CC[C@H](C)[C@H](NC(=O)[C@H](Cc1ccccc1)NC(=O)[C@H](CCC(=O)O)NC(=O)[C@H](CCCCN)NC(=O)[C@H](C)NC(=O)[C@H](C)NC(=O)[C@H](CCC(N)=O)NC(=O)CNC(=O)[C@H](CCC(=O)O)NC(=O)[C@H](CC(C)C)NC(=O)[C@H](Cc1ccc(O)cc1)NC(=O)[C@H](CO)NC(=O)[C@H](CO)NC(=O)[C@@H](NC(=O)[C@H](CC(=O)O)NC(=O)[C@H](CO)NC(=O)[C@@H](NC(=O)[C@H](Cc1ccccc1)NC(=O)[C@@H](NC(=O)CNC(=O)[C@H](CCC(=O)O)NC(=O)[C@H](C)NC(=O)[C@@H](N)Cc1c[nH]cn1)[C@@H](C)O)[C@@H](C)O)C(C)C)C(=O)N[C@@H](C)C(=O)N[C@@H](Cc1c[nH]c2ccccc12)C(=O)N[C@@H](CC(C)C)C(=O)N[C@H](C(=O)N[C@@H](CCCCN)C(=O)NCC(=O)N[C@@H](CCCNC(=N)N)C(N)=O)C(C)C", "tested on": "DPP4", "test": "inactivation, substrate", "endpoint": "half-life", "value": "~0.025 h"}
{"SMILES": "CCc1nn(C)c2nc(-c3ccc(C(=O)O)cc3)nc(NCc3ccc(F)cc3)c12", "tested on": "HCT-8", "test": "cytotoxicity", "endpoint": "CC50", "value": "> 100 µM"}
{"SMILES": "NC(=S)NN=Cc1cc2ccccc2nc1SCC(=O)Nc1ccc(Cl)cc1", "tested on": "tyrosinase", "test": "inhibitor", "endpoint": "IC50", "value": "25.75 ± 0.19 µM"}
{"SMILES": "CC(=O)Oc1ccccc1C(=O)Nc1ncc([N+](=O)[O-])s1", "tested on": "Cryptosporidium parvum", "test": "parasite growth", "system": "Iowa", "endpoint": "EC50", "value": "2 µM"}
{"SMILES": "CNC(=O)c1cc(Oc2ccc(NC(=O)Nc3ccc(Cl)c(C(F)(F)F)c3)cc2)ccn1", "tested on": "HepG2", "endpoint": "IC50", "value": "8.38 µM"}
{"note": "A few entries again:"}
{"SMILES": "C1=C2CCCN[C@H]2[C@@H]2C[C@H]1[C@H]1CCCCN1C2", "tested on": "HIV-1 NL4-3 Nanoluc", "test": "viral replication", "system": "MT-4", "endpoint": "IC50", "value": "1.75 µM"}
